Measured values gathered from unrelated publications.
A part holds a random share of what one study measured. Values joined by “and” are separate records of one study, mostly repeats; a detail may differ.
Chain of UniProt P48729 (whole entry, looked up): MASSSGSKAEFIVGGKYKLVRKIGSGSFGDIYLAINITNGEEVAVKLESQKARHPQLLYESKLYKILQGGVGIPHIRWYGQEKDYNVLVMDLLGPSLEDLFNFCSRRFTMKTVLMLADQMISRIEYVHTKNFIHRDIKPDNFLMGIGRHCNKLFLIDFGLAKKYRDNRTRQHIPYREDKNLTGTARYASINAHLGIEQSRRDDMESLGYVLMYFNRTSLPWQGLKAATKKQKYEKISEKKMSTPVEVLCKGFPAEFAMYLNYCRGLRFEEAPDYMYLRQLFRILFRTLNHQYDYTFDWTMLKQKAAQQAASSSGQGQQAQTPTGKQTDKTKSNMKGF
Chain of UniProt Q12851 (whole entry, looked up): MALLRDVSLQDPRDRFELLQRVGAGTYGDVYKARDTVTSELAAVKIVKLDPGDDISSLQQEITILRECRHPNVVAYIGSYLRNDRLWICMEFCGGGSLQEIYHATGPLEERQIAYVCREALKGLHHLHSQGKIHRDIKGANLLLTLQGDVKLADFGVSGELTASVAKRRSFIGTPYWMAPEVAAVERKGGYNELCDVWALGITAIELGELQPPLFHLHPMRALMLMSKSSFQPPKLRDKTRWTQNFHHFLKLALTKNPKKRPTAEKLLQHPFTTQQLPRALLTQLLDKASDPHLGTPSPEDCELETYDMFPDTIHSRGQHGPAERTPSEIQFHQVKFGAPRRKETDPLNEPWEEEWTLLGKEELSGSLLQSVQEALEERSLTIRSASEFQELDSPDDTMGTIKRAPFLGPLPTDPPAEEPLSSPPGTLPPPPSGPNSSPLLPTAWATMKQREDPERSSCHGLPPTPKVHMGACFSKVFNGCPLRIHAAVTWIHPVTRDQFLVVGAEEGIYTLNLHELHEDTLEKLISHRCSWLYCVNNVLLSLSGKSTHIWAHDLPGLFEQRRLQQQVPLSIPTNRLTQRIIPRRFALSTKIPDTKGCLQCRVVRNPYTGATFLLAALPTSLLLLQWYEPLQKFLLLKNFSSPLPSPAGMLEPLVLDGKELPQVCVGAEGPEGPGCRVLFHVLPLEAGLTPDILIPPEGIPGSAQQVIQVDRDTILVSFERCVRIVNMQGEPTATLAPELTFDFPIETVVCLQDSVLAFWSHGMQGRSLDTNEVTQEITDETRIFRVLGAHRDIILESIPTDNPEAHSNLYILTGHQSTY
Chain of UniProt P10721 (whole entry, looked up): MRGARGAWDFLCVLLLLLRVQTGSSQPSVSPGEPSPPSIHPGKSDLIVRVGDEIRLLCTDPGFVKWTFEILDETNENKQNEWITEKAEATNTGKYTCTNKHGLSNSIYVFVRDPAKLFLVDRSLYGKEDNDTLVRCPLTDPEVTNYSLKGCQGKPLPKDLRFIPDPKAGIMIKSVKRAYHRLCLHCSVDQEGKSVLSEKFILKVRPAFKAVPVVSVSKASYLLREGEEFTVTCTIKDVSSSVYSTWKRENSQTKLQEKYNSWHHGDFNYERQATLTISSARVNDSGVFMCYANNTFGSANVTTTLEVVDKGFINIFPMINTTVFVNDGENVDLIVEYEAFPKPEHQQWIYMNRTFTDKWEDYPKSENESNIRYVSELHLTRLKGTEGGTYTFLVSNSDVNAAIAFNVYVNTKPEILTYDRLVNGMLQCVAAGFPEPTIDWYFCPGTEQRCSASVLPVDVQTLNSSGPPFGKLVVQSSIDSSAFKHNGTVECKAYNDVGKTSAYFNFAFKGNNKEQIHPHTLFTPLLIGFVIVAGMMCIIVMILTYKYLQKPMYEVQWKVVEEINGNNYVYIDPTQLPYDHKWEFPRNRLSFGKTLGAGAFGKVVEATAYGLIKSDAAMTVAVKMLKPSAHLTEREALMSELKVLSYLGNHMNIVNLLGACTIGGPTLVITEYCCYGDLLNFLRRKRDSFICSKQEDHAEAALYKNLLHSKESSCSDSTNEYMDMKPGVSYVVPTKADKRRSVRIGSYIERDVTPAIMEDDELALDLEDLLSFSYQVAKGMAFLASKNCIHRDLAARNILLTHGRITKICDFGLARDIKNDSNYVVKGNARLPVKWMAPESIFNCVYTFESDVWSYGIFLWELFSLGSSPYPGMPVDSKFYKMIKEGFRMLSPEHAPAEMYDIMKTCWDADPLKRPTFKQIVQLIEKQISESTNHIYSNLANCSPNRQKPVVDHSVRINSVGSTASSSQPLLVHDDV
Chain of UniProt P07333 (whole entry, looked up): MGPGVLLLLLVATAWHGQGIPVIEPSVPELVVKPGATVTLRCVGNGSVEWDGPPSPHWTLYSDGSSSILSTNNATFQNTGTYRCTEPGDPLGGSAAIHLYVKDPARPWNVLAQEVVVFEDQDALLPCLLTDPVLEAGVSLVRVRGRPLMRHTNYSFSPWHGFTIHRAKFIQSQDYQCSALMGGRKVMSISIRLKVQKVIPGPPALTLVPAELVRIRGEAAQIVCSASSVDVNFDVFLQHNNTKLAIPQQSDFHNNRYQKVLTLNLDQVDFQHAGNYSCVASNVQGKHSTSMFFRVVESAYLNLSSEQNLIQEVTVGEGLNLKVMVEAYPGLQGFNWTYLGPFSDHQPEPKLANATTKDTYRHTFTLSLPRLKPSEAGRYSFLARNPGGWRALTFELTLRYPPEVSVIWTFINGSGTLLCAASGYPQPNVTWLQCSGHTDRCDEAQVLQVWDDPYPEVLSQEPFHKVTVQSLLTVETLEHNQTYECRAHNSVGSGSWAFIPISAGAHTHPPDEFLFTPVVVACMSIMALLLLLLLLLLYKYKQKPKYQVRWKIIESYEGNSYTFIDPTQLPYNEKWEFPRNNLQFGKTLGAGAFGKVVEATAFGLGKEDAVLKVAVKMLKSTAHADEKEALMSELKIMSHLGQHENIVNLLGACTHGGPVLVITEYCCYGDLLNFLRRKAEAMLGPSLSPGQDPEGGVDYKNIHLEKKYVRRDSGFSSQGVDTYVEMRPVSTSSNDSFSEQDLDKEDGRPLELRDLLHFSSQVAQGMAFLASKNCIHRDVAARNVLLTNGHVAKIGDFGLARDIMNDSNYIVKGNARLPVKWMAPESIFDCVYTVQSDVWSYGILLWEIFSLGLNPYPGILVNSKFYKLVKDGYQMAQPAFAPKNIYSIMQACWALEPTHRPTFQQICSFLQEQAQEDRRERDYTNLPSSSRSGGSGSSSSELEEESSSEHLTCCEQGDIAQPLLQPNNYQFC
Chain of UniProt P27361 (whole entry, looked up): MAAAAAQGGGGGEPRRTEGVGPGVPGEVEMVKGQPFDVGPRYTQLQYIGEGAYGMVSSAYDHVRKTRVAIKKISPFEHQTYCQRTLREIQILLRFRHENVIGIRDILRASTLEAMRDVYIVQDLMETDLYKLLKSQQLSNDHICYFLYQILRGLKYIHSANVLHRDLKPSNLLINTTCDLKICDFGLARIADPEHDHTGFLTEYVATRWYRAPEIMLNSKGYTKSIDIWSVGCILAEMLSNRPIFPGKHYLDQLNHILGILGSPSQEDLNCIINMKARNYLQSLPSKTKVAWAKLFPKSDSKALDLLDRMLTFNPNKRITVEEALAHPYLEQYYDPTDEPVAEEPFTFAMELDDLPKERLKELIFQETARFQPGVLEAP
Chain of UniProt Q92630 (whole entry, looked up): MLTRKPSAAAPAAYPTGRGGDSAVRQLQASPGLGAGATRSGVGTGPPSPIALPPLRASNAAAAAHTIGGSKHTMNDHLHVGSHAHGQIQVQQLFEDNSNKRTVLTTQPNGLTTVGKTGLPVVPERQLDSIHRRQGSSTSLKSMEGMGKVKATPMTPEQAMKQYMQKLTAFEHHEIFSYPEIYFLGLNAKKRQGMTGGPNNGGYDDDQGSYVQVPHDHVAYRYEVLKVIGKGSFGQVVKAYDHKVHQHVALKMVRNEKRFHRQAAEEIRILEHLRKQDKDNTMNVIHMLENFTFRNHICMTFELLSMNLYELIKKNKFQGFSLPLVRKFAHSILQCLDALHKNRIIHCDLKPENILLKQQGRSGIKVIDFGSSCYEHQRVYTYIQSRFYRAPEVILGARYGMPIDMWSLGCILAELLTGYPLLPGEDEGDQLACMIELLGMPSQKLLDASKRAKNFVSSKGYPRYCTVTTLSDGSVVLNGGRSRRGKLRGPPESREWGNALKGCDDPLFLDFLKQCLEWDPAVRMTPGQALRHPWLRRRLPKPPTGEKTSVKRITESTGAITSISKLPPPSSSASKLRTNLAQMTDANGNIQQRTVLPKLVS
Chain of UniProt Q9UIK4 (whole entry, looked up): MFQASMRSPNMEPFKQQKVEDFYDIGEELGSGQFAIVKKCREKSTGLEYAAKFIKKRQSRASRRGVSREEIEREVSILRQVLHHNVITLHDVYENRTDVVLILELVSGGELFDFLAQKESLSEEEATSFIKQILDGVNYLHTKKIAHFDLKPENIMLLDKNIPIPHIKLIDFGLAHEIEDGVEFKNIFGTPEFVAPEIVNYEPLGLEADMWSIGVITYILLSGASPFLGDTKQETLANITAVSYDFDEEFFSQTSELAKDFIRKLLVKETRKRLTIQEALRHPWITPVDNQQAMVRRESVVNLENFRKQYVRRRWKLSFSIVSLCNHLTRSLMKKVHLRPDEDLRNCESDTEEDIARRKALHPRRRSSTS

Study 1 — concentration: 1 µM; measurement: remaining binding
SMILES: COc1ccc2[nH]c3c4[nH]c5ccc(OC)cc5c4c4c(c3c2c1)C(=O)NC4=O
DYRK2 (Homo sapiens, UniProt Q92630); competitive binding panel; baseline: vehicle: 50%
MAP3K5 (Homo sapiens, UniProt Q99683); competitive binding panel, measured: ASK1; baseline: vehicle: 83%
DSTYK (Homo sapiens, UniProt Q6XUX3); competitive binding panel, measured: RIPK5; baseline: vehicle: 27%
NEK5 (Homo sapiens, UniProt Q6P3R8); competitive binding panel; baseline: vehicle: 76%
PDPK1 (Homo sapiens, UniProt O15530); competitive binding panel; baseline: vehicle: 25%
TAOK1 (Homo sapiens, UniProt Q7L7X3); competitive binding panel; baseline: vehicle: 100%
TNNI3K (Homo sapiens, UniProt Q59H18); competitive binding panel; baseline: vehicle: 90%
ABL1 (Homo sapiens, UniProt P00519, H396P); competitive binding scan: 34% and 65%
BUB1 (Homo sapiens, UniProt O43683); competitive binding panel; baseline: vehicle: 29%
TEC (Homo sapiens, UniProt P42680); competitive binding panel; baseline: vehicle: 88%
CSNK1G2 (Homo sapiens, UniProt P78368); competitive binding panel; baseline: vehicle: 86%
AKT1 (Homo sapiens, UniProt P31749); competitive binding panel; baseline: vehicle: 72%
CDKL5 (Homo sapiens, UniProt O76039); competitive binding panel; baseline: vehicle: 94%
AAK1 (Homo sapiens, UniProt Q2M2I8); competitive binding panel; baseline: vehicle: 53%
MET (Homo sapiens, UniProt P08581); competitive binding panel; baseline: vehicle: 78%
NEK10 (Homo sapiens, UniProt Q6ZWH5); competitive binding panel; baseline: vehicle: 93%
SGK1 (Homo sapiens, UniProt O00141); competitive binding; SGK: 6.8%

Study 2 — observed: enzyme activity; mode: inhibitor; concentration: 0.5 µM; baseline: control; measurement: remaining activity
SMILES: CC(C)c1nn(-c2c(Cl)cccc2Cl)c2nc(Cc3ccc(OCCO)cc3)[nH]c(=O)c12
BTK (Homo sapiens, UniProt Q06187): 100%
Cyclin-dependent kinase 9, with cyclin T1 (CDK9, Homo sapiens, UniProt P50750): 22.7%
PLK2 (Homo sapiens, UniProt Q9NYY3): 99.8%
PRKCD (Homo sapiens, UniProt Q05655): 108%
IRAK4 (Homo sapiens, UniProt Q9NWZ3): 112%
NEK4 (Homo sapiens, UniProt P51957): 96.3%
MAP2K6 (Homo sapiens, UniProt P52564): 92.7%
MKNK2 (Homo sapiens, UniProt Q9HBH9): 88.9%
CSNK2A1 (Homo sapiens, UniProt P68400): 88.8%
CHEK1 (Homo sapiens, UniProt O14757): 96.2%
MAPK12 (Homo sapiens, UniProt P53778): 103%
LRRK2 (Homo sapiens, UniProt Q5S007): 109%
EPHA5 (Homo sapiens, UniProt P54756): 110%
MAP4K2 (Homo sapiens, UniProt Q12851): 106%
WNK2 (Homo sapiens, UniProt Q9Y3S1): 95.7%
KIT (Homo sapiens, UniProt P10721): 71%
MAP3K10 (Homo sapiens, UniProt Q02779): 90.3%
LYN (Homo sapiens, UniProt P07948): 102%
MAPK13 (Homo sapiens, UniProt O15264): 104%
PRKG1 (Homo sapiens, UniProt Q13976): 92.3%
CSNK1A1 (Homo sapiens, UniProt P48729): 99%
PRKCI (Homo sapiens, UniProt P41743): 95.2%

Study 3 — observed: enzyme activity; mode: inhibitor; concentration: 10 µM; measurement: inhibition
Target: Calcium/calmodulin-dependent protein kinase type II subunit alpha (CAMK2A, Homo sapiens, UniProt Q9UQM7)
Chain of UniProt Q9UQM7 (whole entry, looked up): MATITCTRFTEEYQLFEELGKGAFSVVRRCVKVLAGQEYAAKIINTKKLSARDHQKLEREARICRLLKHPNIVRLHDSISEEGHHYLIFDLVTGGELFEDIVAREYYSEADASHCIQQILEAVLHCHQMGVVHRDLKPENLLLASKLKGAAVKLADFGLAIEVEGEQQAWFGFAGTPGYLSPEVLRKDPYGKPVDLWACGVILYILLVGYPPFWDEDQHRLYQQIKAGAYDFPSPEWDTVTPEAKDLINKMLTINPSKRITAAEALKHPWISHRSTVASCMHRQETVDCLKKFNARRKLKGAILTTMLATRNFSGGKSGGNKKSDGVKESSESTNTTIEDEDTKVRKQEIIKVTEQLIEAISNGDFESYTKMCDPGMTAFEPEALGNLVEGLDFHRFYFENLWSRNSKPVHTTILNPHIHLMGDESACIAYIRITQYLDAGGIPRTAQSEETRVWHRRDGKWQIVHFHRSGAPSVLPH
CC(=O)OCC1=C[C@@H]2OC(=O)C3=CO[C@@H](O[C@@H]4O[C@H](CO)[C@@H](O)[C@H](O)[C@H]4O)[C@H]1[C@@H]32: -20%
CN1CCN(C2=Nc3cc(Cl)ccc3Nc3ccccc32)CC1: -13%
CC(C)=CCC[C@@](C)(O)[C@H]1CC=C(C)CC1: -11%
CCCCCCCCCCCCCCCC(=O)O: 26%
COc1cc2c(cc1OC)[C@@H](Cc1ccc(Oc3cc(C[C@@H]4c5cc(OC)c(OC)cc5CCN4C)ccc3O)cc1)N(C)CC2: -28%
CC(=O)C(=O)O: -26%
Cn1c(NCCN(CCO)CCCc2ccc([N+](=O)[O-])cc2)cc(=O)n(C)c1=O: -5%
COc1cccc2c1C(=O)c1c(O)c3c(c(O)c1C2=O)C[C@@](O)(C(=O)CO)C[C@@H]3O[C@H]1C[C@H](N)[C@H](O[C@@H]2CCCCO2)[C@H](C)O1: 0%
CC(C)c1ccc(C=O)cc1: -10%
C[C@](N)(Cc1ccc(O)c(O)c1)C(=O)O: 0%
COc1ccc(-c2cc(=O)c3c(O)c(OC)c(O[C@@H]4O[C@H](CO[C@@H]5O[C@@H](C)[C@H](O)[C@@H](O)[C@H]5O)[C@@H](O)[C@H](O)[C@H]4O)cc3o2)cc1: 3%
CCC(C)CCCCC(=O)NCC[C@@H]1NC(=O)[C@H](CC(C)C)NC(=O)[C@H](CCN)NC(=O)[C@H](CC(C)C)NC(=O)[C@H](CCN)NC(=O)[C@H](CCN)NC(=O)[C@H](CCN)NC(=O)[C@H]([C@@H](C)O)NC1=O (stereo partly shown): -9%
NCCC(=O)N[C@@H](Cc1cnc[nH]1)C(=O)O: 27%
O=CC(=O)O: -41%
C[C@H](CC[C@@H](O[C@@H]1O[C@H](CO)[C@@H](O)[C@H](O)[C@H]1O[C@@H]1O[C@H](CO)[C@@H](O)[C@H](O)[C@H]1O)C(C)(C)O)[C@H]1CC[C@@]2(C)[C@@H]3CC=C4[C@@H](CC[C@H](O)C4(C)C)[C@]3(C)[C@H](O)C[C@]12C: -10%

Study 4 — observed: cell-free assay; method: competition with immobilised ligand; concentration: 0.1 µM; measurement: remaining binding
Compound: CC(C)CC(=O)N1CCc2nc(-c3ccc(Br)cc3)nc(N(C)Cc3ccccc3)c2C1
MAPK3 (Homo sapiens, UniProt P27361): 88%
NEK9 (Homo sapiens, UniProt Q8TD19): 100%
FLT3 (Homo sapiens, UniProt P36888, D835V/ITD): 92%
TLK2 (Homo sapiens, UniProt Q86UE8): 100%
DAPK2 (Homo sapiens, UniProt Q9UIK4): 100%
MAP3K6 (Homo sapiens, UniProt O95382): 100%
PLK4 (Homo sapiens, UniProt O00444): 70%
CDKL2 (Homo sapiens, UniProt Q92772): 87%
STK11 (Homo sapiens, UniProt Q15831): 100%
FLT3 (Homo sapiens, UniProt P36888): 60%
PKMYT1 (Homo sapiens, UniProt Q99640): 92%
Tyrosine-protein kinase ABL1, phosphorylated (ABL1, Homo sapiens, UniProt P00519, Y253F): 97%
CSF1R (Homo sapiens, UniProt P07333): 100%
CSNK1A1 (Homo sapiens, UniProt P48729): 73%
Ribosomal protein S6 kinase alpha-1, C-terminal kinase domain (RPS6KA1, Homo sapiens, UniProt Q15418): 100%
MAP3K2 (Homo sapiens, UniProt Q9Y2U5): 100%
FGFR1 (Homo sapiens, UniProt P11362): 100%
MAP3K12 (Homo sapiens, UniProt Q12852): 90%
MAPK11 (Homo sapiens, UniProt Q15759): 100%
COQ8A (Homo sapiens, UniProt Q8NI60): 100%
MAST1 (Homo sapiens, UniProt Q9Y2H9): 100%
EGFR (Homo sapiens, UniProt P00533, G719C): 100%
PIK3CA (Homo sapiens, UniProt P42336, C420R): 87%
STK32C (Homo sapiens, UniProt Q86UX6): 98%
MYLK2 (Homo sapiens, UniProt Q9H1R3): 96%

A few entries again (study 3):
Cn1c(NCCN(CCO)CCCc2ccc([N+](=O)[O-])cc2)cc(=O)n(C)c1=O: -5%
COc1cccc2c1C(=O)c1c(O)c3c(c(O)c1C2=O)C[C@@](O)(C(=O)CO)C[C@@H]3O[C@H]1C[C@H](N)[C@H](O[C@@H]2CCCCO2)[C@H](C)O1: 0%
CC(C)c1ccc(C=O)cc1: -10%
C[C@](N)(Cc1ccc(O)c(O)c1)C(=O)O: 0%
